Measurements pooled from the literature.
Every numbered part comes from another study and shows a few of its results, in no order. Substitutions count along the parent as printed.

Set 1 — target: CCNE1, cyclin fold, Cln2 fusion (human); method: yeast growth competition, sequencing; medium: yeast; setting: strong parent motif; reference: not given; reading: higher = stronger binding; quantity: normalised enrichment score
Starting sequence: CDKN1B docking peptide (human); PSACRNLFGPVDH; partner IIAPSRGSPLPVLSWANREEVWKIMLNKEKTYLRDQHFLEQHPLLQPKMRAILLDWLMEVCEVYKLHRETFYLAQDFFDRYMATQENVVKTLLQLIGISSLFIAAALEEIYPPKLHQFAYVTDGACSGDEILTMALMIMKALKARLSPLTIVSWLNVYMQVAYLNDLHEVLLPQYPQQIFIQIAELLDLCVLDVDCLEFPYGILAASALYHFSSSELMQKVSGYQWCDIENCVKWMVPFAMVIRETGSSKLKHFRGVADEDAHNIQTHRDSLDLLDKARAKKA
Variant = D12A; value = 3.17
Variant = F8V; value = -0.291
Variant = L7Y; value = 0.0711
Variant = P1S; value = 3.02
Variant = P1H; value = 3.82
Variant = N6H; value = 0.447
Variant = V11Y; value = 4.15
Variant = S2F; value = 1.62
Variant = V11N; value = 2.63
Variant = P10V; value = 2.71
Variant = H13I; value = 3.11
Variant = D12N; value = 3.27
Variant = S2Q; value = 1.81
Variant = C4K; value = 2.89
Variant = P10I; value = 2.03
Variant = L7I; value = 1.6

Set 2 — method: RNA Bind-n-Seq; molecule type: RNA; medium: in vitro; tested at: 1 µM; setting: whole 134-nt RNA, ends assumed; together with: 150 mM KCl; reference: input library; reading: higher = stronger binding; quantity: log2 enrichment
Target: Ras GTPase-activating protein-binding protein 1, C-terminal RGG region (G3BP1, Homo sapiens, UniProt Q13283)
UniProt Q13283, sequence (whole entry, looked up): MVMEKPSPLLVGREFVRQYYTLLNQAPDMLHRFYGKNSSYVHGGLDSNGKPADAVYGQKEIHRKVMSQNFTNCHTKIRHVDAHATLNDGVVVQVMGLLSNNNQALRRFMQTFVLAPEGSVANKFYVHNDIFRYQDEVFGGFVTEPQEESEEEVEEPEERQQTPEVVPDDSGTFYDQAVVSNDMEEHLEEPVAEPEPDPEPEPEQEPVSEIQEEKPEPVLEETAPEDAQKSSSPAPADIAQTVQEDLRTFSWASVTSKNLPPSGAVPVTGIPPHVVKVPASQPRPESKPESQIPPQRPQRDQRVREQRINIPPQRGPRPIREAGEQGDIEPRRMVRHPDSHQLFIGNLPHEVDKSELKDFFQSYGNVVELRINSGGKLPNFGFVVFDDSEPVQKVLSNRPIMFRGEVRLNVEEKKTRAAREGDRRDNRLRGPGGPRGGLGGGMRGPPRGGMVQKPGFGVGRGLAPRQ
Strand = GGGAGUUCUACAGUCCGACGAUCGUCCUGUGCUACACAUCGUAUGUACCGAAUCGGUUUUUGGGGUUUUUGGGGUUUUUGGAAAGUAUUAUGUUACGCCGUUCGGAUCUGCACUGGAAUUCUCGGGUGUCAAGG; value = -0.678
Strand = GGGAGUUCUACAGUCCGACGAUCCAAGUCCUGUGCUACACAUCGUAUGUACCGAAUCGGUUUUGGUUUUGGUUUUGGGGAAAGUAUUAUGUUACGCCGUUCGGAUCUGCACUUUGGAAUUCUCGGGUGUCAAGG; value = -1.59
Strand = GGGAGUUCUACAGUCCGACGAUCUGCCAGGCCCACCCCCAGGUGUUCCCGCGCCUGGGGGCCCACCCCUGUCCACCGGACCUAUAGUGGACCUGCUCCAGUACAGCCAGAAGGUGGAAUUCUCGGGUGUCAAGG; value = -0.134
Strand = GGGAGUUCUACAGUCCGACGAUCAGUCCUGUGCUACACAUCGUAUGUACCGAAUCGGUUUGGUUUUUUUGGAAAAAAAGGAAAGUAUUAUGUUACGCCGUUCGGAUCUGCACUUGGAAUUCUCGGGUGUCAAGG; value = -2.06
Strand = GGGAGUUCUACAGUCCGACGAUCCCUGUGCUACACAUCGUAUGUACCGAAUCGGGAAAAAAGGGGAAAAAAGGAAAAAAGGGGAAAGUAUUAUGUUACGCCGUUCGGAUCUGCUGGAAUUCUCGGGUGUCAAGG; value = -1.51
Strand = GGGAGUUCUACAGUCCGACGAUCUGGGAGGUGGAUUUUGUUUAUUUUUUUAGCUCAUUUCCAGGGGUGGGAAUUUUUUUUUAAUAUGUGUCAUGAAUAAAGUUGUUUUUGAAAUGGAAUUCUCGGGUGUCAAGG; value = 2.78
Strand = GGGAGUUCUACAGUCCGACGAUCCACAGACAACACGCACCCACACAGACACCGAGGGAAGGGGUUGGGAUGGGGACAGGGUGCACAGCAGGGCGGGGUAGGACCCCAGCCCCUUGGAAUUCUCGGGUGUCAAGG; value = -0.133
Strand = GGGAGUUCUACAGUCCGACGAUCCUGUGCUACACAUCGUAUGUACCGAAUCGGGUUUUUUUGGGGUUUUUUUGGUUUUUUUGGGGAAAGUAUUAUGUUACGCCGUUCGGAUCUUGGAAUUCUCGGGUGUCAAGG; value = -1.13
Strand = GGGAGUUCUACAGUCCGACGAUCAGUCCUGUGCUACACAUCGUAUGUACCGAAUCGGUUUUUUUGGUUUGGUUUUUUUGGAAAGUAUUAUGUUACGCCGUUCGGAUCUGCACUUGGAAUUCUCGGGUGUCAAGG; value = -2.04
Strand = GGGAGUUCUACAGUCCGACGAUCUUGUCCCGGAUGGGCAGCCUGCGGGCUCCCGUGGACGAGGACCGCCUGUCCCCGCUGGUGGCGGCCGACUCGCUCCUGGAGCAUGUGCGGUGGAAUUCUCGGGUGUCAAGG; value = -1.09

Set 3 — method: DHFR PCA, deep sequencing; medium: yeast; together with: (+)-ABA 0.032 µM; reference: wild-type fitted maximum; reading: higher = stronger binding; quantity: relative binding score
Target: ABI1, truncated, D143A, DHFR fusion (Arabidopsis thaliana)
Setting: methotrexate growth selection, single substitutions
Starting sequence: PYL1, truncated, DHFR fusion (Arabidopsis thaliana); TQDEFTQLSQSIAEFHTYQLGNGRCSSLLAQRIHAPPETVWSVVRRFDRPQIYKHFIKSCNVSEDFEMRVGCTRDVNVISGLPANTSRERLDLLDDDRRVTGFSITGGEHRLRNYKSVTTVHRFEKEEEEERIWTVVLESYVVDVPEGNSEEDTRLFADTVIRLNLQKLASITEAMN
Variant = E174G; value = -3.09%
Variant = E14S; value = 2.28%
Variant = V136E; value = -4.55%
Variant = L93N; value = 5.24%
Variant = A158V; value = 53.3%
Variant = S87G; value = -1.59%
Variant = R132K; value = 48.3%
Variant = H16C; value = -0.338%
Variant = F66Q; value = 6.34%
Variant = K126T; value = 53%
Variant = I12Q; value = 5.47%
Variant = E139S; value = 1.34%
Variant = Y18S; value = 0.334%
Variant = V70C; value = 0.257%
Variant = F56D; value = 1.58%
Variant = S26Q; value = -1.74%

Set 4 — method: RNA Bind-n-Seq; molecule type: RNA; medium: in vitro; tested at: 365 nM; reference: no-protein control; reading: higher = stronger binding; quantity: RBNS enrichment (R)
Target: RNA binding protein fox-1 homolog 2, RRM domain, GST-SBP tag (RBFOX2, Homo sapiens, UniProt O43251-10, residues 100-194)
Setting: natural RNA segment, single round, ends assumed
Construct (chain): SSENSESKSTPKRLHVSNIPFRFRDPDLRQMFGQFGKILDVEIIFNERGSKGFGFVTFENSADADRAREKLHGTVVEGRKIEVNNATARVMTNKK
Strand = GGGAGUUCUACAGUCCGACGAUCCACCGCGCUGUGGGUAGUGUGUGACCGUGGCUGUACUGUAUAGUGAACAUAGUUGGCAUAUCUUUGUUUGAAGUUUGUUGGUGACUCCACCAAACUGGUGUGAAAAAAGAUGGAAUUCUCGGGUGCCAA; value = 0.543
Strand = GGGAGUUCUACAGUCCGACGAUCGCUUAAGCAAGGACAUUAAUCCUACUAGAUGAAGGGGAAGUUGGUUCUGUUGUCUUAAGGGAUGCCCCCUUGUGAUUUUGGUCAACUGAAUGAAAAAGAAAAGAUAGCCUUGGAAUUCUCGGGUGCCAA; value = 0.72
Strand = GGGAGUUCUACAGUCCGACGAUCCUUCAACCUCCCGUGCCUCGUUUCCUCCCUCUGUAGCAUGGGGCUCGAGACUCCUGUUUGUGAGGGACUCUUACAAGGAUAAGAGCAAGGCCACACCACUUCCGCUGUGUUGGAAUUCUCGGGUGCCAA; value = 0.704
Strand = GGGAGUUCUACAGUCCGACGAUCCGAUUAGUUCAGGUUGGGUUUGGUUUUCUUCUUAAAGAGUUUAGUUUUCCUCUCCAGAGGGAUCAGGGUCCUCUUAGGGAGUGACGGGCUUUUCAUAUAUUUUUGCUGAAUGGAAUUCUCGGGUGCCAA; value = 0.476
Strand = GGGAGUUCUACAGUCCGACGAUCGAUGCACCUGCCUCCCUUCAUCCUCUCUCUGGGGCUGCGUUGCCUCGGCAAUGCCCCUUUUGGAGCAUGGAAGGGCUUCAGGGAUGGGGCAGCCUGGAAGGACAGGUGGAUGGAAUUCUCGGGUGCCAA; value = 0.75
Strand = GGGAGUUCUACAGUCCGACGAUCGCUUUUGUUGGUUCCGCCCGUGGAGACGACGAUAGUGUUUCUGUAUAAUAAAGUGUCUGCCGGCUCGCGGGCCAGGAUCCUCUCGGUGGGAUGGGCACCACAGACAGGAGUGGAAUUCUCGGGUGCCAA; value = 0.478
Strand = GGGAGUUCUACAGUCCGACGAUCUUACAUUUGCACCAGCAAUGUAGGAGGGUUCUGAUAUCUCCACGUCCUCACCAACACUUGUGAUUAUGUGUCUUUUAAAAUUAUAGCCAUCCUUGUGGAUGUGAAGUGGUUGGAAUUCUCGGGUGCCAA; value = 0.3
Strand = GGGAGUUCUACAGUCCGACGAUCUCUGAUUCAUAUUUUAGGACUUUUUGUCAACGAAAUUGGUUUUGAUCCCUUUGGGUACCAUUUUUAUUGUUUUAUGUAGAAUGUUAGAAAUUACCACUAAUUUACCUGGCUGGAAUUCUCGGGUGCCAA; value = 0.327
Strand = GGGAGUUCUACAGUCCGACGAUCAUUUUUUUACAAUUCAUUUUGACUCUCAUGGCUGACCAUGUCAUUAUGUCUUUAAAUUUUGGUAAAUAUGUAGAUACCAAGCAUUAAUAACUAAUGCACACAGAAAUUUAUGGAAUUCUCGGGUGCCAA; value = 0.706
Strand = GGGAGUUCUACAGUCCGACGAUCGAGCCAGCCCUCCCUGUCCUCCUCGGAUCACCGAGAGUAGCCGAGAGCCUGCUCCCCCACCCCCUCCCCAGGGGAGAGGGUCUGGAGAAGCAGUGAGCCGCAUCUUCUCCUGGAAUUCUCGGGUGCCAA; value = 0.942
Strand = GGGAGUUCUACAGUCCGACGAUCCCAAAGCCCCUUCCAGGCCUGAAUUCCACAAGUACGAUUUACUGUAGUGUCUUAUCACUCUUUCAUGUCACAAUAGCGUGGAGCAUUAGAGAAAAGCCUAGACUUUUAGUUGGAAUUCUCGGGUGCCAA; value = 0.502
Strand = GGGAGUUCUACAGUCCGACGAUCCCUCUGCCCAUGAUCCCCAAUGUUGGCUAUAACUGCGUGAAUAAAGCAAGGAUCAGUGCCUCCUGUGAACUAGUGCUCCAUUGCUUUUGUGUGUUGUGUUCUGUACAAUUUGGAAUUCUCGGGUGCCAA; value = 1.04

Excerpt of the above (set 4):
Strand = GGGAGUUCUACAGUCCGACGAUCCGAUUAGUUCAGGUUGGGUUUGGUUUUCUUCUUAAAGAGUUUAGUUUUCCUCUCCAGAGGGAUCAGGGUCCUCUUAGGGAGUGACGGGCUUUUCAUAUAUUUUUGCUGAAUGGAAUUCUCGGGUGCCAA; value = 0.476
Strand = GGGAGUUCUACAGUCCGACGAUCGAUGCACCUGCCUCCCUUCAUCCUCUCUCUGGGGCUGCGUUGCCUCGGCAAUGCCCCUUUUGGAGCAUGGAAGGGCUUCAGGGAUGGGGCAGCCUGGAAGGACAGGUGGAUGGAAUUCUCGGGUGCCAA; value = 0.75
Strand = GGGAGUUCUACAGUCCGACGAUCGCUUUUGUUGGUUCCGCCCGUGGAGACGACGAUAGUGUUUCUGUAUAAUAAAGUGUCUGCCGGCUCGCGGGCCAGGAUCCUCUCGGUGGGAUGGGCACCACAGACAGGAGUGGAAUUCUCGGGUGCCAA; value = 0.478
Strand = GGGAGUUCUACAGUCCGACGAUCUUACAUUUGCACCAGCAAUGUAGGAGGGUUCUGAUAUCUCCACGUCCUCACCAACACUUGUGAUUAUGUGUCUUUUAAAAUUAUAGCCAUCCUUGUGGAUGUGAAGUGGUUGGAAUUCUCGGGUGCCAA; value = 0.3
Strand = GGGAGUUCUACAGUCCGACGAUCUCUGAUUCAUAUUUUAGGACUUUUUGUCAACGAAAUUGGUUUUGAUCCCUUUGGGUACCAUUUUUAUUGUUUUAUGUAGAAUGUUAGAAAUUACCACUAAUUUACCUGGCUGGAAUUCUCGGGUGCCAA; value = 0.327
Strand = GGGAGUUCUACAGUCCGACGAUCAUUUUUUUACAAUUCAUUUUGACUCUCAUGGCUGACCAUGUCAUUAUGUCUUUAAAUUUUGGUAAAUAUGUAGAUACCAAGCAUUAAUAACUAAUGCACACAGAAAUUUAUGGAAUUCUCGGGUGCCAA; value = 0.706
Strand = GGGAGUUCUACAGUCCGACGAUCGAGCCAGCCCUCCCUGUCCUCCUCGGAUCACCGAGAGUAGCCGAGAGCCUGCUCCCCCACCCCCUCCCCAGGGGAGAGGGUCUGGAGAAGCAGUGAGCCGCAUCUUCUCCUGGAAUUCUCGGGUGCCAA; value = 0.942
